Assay results of several laboratories.
A part holds a random share of what one study measured.
Sequence of UniProt O75914 (whole entry, looked up): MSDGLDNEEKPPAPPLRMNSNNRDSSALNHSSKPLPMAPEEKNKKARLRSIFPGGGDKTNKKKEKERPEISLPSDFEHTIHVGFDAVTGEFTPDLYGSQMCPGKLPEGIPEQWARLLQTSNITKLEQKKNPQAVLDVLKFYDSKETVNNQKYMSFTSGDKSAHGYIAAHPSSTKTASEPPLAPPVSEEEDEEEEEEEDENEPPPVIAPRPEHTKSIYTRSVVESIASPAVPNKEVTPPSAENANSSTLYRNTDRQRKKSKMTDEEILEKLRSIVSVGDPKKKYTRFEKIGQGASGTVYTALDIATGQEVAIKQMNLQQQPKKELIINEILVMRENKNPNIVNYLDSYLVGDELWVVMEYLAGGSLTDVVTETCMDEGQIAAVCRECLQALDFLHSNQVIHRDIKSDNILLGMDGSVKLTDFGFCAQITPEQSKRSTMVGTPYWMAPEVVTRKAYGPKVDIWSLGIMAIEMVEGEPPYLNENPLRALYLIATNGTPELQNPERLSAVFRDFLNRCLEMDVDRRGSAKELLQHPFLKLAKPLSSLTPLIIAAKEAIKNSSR
Sequence of UniProt P27448 (whole entry, looked up): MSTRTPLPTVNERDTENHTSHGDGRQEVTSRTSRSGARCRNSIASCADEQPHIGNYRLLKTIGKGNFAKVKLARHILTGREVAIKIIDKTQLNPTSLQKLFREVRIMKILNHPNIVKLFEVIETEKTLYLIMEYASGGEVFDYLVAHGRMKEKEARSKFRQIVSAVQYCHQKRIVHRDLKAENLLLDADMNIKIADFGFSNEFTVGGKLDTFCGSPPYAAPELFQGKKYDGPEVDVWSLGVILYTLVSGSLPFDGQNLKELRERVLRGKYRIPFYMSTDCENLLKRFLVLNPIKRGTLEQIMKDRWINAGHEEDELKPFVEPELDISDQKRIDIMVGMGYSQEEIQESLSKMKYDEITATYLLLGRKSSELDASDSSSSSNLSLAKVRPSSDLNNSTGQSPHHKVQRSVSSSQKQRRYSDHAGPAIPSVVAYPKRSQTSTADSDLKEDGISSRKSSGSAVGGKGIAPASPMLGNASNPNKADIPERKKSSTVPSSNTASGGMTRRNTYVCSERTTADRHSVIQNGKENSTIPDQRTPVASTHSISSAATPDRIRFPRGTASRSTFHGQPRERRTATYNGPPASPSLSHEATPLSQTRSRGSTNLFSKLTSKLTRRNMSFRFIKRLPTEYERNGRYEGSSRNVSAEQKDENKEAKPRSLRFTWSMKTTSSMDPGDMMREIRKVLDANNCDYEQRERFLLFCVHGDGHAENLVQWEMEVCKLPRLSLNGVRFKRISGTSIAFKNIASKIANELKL
Sequence of UniProt P35968 (whole entry, looked up): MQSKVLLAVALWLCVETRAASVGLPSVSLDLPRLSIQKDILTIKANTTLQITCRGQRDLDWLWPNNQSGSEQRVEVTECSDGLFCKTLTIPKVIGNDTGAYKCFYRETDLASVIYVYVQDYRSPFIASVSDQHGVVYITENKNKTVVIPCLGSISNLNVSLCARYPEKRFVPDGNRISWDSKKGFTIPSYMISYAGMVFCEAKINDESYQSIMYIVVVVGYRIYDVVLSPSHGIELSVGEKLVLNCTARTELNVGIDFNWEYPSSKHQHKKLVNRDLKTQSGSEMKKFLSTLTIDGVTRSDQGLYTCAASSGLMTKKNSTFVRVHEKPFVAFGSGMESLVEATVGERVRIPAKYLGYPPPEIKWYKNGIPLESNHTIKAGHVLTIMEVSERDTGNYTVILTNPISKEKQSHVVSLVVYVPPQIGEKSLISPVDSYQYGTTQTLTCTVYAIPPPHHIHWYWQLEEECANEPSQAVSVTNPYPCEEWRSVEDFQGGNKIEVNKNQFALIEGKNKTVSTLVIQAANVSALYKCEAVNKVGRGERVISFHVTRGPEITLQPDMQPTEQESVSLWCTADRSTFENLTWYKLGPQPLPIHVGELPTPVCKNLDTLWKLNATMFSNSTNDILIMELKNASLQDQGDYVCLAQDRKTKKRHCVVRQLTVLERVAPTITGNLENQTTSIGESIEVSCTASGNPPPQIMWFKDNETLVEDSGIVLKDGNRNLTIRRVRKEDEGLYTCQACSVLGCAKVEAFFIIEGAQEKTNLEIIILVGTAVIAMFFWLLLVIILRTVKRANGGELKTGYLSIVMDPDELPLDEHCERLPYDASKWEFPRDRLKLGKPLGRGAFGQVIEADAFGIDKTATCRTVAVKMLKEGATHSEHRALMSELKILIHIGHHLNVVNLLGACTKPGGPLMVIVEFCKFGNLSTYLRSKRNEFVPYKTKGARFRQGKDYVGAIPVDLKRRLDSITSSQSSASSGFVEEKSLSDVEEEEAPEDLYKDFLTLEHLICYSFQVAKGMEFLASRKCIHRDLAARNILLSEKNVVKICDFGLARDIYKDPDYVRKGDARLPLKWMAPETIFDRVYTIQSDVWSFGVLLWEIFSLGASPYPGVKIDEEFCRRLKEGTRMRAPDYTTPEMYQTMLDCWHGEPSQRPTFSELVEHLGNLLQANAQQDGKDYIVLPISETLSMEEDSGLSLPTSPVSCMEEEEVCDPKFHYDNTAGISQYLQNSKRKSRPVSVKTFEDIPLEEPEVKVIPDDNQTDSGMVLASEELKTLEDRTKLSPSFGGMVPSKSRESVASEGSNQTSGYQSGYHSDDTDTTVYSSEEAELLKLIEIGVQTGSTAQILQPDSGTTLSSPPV
Sequence of UniProt Q8N4C8 (whole entry, looked up): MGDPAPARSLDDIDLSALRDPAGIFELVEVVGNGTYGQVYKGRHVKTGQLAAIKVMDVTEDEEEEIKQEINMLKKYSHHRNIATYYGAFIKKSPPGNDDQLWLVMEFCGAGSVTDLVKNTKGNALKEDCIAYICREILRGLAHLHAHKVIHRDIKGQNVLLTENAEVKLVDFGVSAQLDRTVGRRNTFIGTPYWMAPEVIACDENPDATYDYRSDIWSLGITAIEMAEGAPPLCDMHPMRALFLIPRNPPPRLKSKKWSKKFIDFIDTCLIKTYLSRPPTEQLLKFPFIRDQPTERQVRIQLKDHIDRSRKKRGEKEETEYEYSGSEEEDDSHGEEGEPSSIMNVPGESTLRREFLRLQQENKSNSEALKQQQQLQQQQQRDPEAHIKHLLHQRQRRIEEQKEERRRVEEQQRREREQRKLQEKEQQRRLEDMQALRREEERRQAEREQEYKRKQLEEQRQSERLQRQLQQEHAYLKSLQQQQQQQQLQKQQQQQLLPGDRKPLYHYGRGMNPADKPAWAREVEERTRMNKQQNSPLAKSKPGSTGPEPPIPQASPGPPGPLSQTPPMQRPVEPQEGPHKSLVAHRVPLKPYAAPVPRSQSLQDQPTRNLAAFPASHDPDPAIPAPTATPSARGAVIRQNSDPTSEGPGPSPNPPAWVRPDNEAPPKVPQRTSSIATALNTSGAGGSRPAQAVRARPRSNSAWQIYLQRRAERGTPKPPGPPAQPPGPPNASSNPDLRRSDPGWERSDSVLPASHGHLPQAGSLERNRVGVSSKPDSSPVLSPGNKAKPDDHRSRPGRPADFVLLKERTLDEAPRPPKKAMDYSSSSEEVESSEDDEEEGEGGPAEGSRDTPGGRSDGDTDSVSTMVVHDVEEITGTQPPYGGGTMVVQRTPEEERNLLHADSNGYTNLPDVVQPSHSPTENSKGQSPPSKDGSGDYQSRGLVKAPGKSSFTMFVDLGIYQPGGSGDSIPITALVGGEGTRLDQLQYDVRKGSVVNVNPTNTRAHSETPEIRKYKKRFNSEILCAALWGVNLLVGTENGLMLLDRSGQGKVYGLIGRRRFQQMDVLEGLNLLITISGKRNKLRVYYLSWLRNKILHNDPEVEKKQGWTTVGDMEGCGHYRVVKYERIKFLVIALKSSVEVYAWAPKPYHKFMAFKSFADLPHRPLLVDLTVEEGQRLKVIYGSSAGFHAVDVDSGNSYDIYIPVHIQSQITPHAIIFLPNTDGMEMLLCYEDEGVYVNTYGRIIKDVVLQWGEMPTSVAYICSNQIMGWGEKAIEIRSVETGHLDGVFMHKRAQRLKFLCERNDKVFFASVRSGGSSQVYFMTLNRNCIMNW
Sequence of UniProt Q15759 (whole entry, looked up): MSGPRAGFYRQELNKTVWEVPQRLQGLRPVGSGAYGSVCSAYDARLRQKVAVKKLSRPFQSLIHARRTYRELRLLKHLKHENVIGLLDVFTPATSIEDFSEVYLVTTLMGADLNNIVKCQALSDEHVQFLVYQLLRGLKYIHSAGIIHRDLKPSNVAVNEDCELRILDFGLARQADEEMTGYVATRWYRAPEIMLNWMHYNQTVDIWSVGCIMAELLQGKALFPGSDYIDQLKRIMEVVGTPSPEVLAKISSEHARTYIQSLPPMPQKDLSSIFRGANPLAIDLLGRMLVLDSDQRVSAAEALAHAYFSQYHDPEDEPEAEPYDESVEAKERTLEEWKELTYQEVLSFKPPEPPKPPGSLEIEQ

Block 1 — mode: agonist; endpoint: EC50
Target: Beta-1 adrenergic receptor (ADRB1, Homo sapiens, UniProt P08588)
Sequence of UniProt P08588 (whole entry, looked up): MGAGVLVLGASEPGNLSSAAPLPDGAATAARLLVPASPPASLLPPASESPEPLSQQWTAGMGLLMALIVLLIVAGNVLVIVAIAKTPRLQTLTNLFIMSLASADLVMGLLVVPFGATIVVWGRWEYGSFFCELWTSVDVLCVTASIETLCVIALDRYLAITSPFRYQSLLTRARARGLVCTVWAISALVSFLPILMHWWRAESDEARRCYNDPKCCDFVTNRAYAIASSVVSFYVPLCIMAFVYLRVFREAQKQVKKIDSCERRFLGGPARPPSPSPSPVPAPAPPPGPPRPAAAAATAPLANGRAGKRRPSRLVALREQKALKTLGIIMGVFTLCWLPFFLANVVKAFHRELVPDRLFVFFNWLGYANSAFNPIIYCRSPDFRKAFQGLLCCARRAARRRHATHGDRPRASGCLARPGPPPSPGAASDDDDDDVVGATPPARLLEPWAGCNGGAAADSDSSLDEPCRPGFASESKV
CCc1nc(Nc2cccc(C(O)CO)c2)c2ccsc2n1 (centres unmarked): ≥ 100 µM
COc1cc(CNCc2ccccc2C)ccc1OCC(O)CN1CCOCC1 (centres unmarked): 10 µM
Cc1cc(NCCc2cnccn2)nc(-c2ccccc2O)n1: ≥ 100 µM
Oc1cccc(-c2c3nc(c(-c4cccc(O)c4)c4ccc([nH]4)c(-c4cccc(O)c4)c4nc(c(-c5cccc(O)c5)c5ccc2[nH]5)CC4)C=C3)c1: ≥ 100 µM
CN(c1ccccc1)c1cc(=O)c2ccnc(Nc3cccnc3)c2o1: ≥ 100 µM
COc1ccccc1N1CCN(c2ncccc2CNC(=O)C2COC(=O)N2)CC1 (centres unmarked): ≥ 100 µM
Cc1noc2c(-c3ccc(N4CCOCC4)cc3)cc(-c3ccccc3)nc12: ≥ 100 µM
COc1ccccc1N1CCN([S+](=O)([O-])c2c(C)cc(C)cc2C)CC1: ≥ 100 µM

Block 2 — observed: cell-free assay; method: competition with immobilised ligand; tested at: 1 µM; endpoint: remaining binding
SMILES: CCC(=O)N[C@H]1CC[C@@H](C(=O)N(C)c2ccc(-c3nc4ccccc4o3)cc2)C1
CSK (Homo sapiens, UniProt P41240): 100%
EGFR (Homo sapiens, UniProt P00533, G719S): 100%
DAPK2 (Homo sapiens, UniProt Q9UIK4): 100%
EPHA3 (Homo sapiens, UniProt P29320): 100%
PAK3 (Homo sapiens, UniProt O75914): 98%
KIT (Homo sapiens, UniProt P10721, L576P): 61%
MARK3 (Homo sapiens, UniProt P27448): 96%
MAP4K5 (Homo sapiens, UniProt Q9Y4K4): 100%

Block 3 — species: mouse; medium: microsomes or S9; tested at: 2 µM; time: 0.5 h; endpoint: remaining compound
CC(C)n1c(C(O)c2nc3ccccc3n2C)nc2ccccc21 (centres unmarked): 0.555%
O=C1CN(C2CCCC2)C(=O)N1Cc1cc2c(cc1Br)OCO2: > 100%
O=C(CC1(O)C(=O)Nc2cc(Cl)cc(Cl)c21)c1ccccc1 (centres unmarked): 61.6%
Nc1ncnc2c1ncn2C/C=C/CN1CCN(Cc2ccccc2)CC1: 87.7%
CN(c1nccc2c(Br)csc12)C1CCN(C(=O)OC(C)(C)C)CC1: 0.539%

Block 4 — SMILES: Fc1ccc(-c2nc3n(c2-c2ccncc2)CCS3)cc1; observed: enzyme activity; mode: inhibitor; tested at: 0.5 µM; relative to: control; endpoint: remaining activity
Cyclin-dependent kinase 9, with cyclin K (CDK9, Homo sapiens, UniProt P50750): 102%
MAPK11 (Homo sapiens, UniProt Q15759): 97.2%
MINK1 (Homo sapiens, UniProt Q8N4C8): 97.7%
RPS6KA4 (Homo sapiens, UniProt O75676): 88.8%
KDR (Homo sapiens, UniProt P35968): 95.7%
PLK3 (Homo sapiens, UniProt Q9H4B4): 97.8%
CDC42BPB (Homo sapiens, UniProt Q9Y5S2): 115%
MAP2K1 (Homo sapiens, UniProt Q02750): 93.6%
PAK3 (Homo sapiens, UniProt O75914): 104%
ROCK1 (Homo sapiens, UniProt Q13464): 103%
DDR2 (Homo sapiens, UniProt Q16832): 94.9%
PRKG2 (Homo sapiens, UniProt Q13237): 93.9%
TXK (Homo sapiens, UniProt P42681): 98.9%
PNCK (Homo sapiens, UniProt Q6P2M8): 90.3%
